Experimental data collected from several papers.
± marks the error that the study gave.
B1: UGT1A9 (Homo sapiens, UniProt O60656); chain GKLLVVPMDGSHWFTMRSVVEKLILRGHEVVVVMPEVSWQLGRSLNCTVKTYSTSYTLEDLDREFKAFAHAQWKAQVRSIYSLLMGSYNDIFDLFFSNCRSLFKDKKLVEYLKESSFDAVFLDPFDNCGLIVAKYFSLPSVVFARGILCHYLEEGAQCPAPLSYVPRILLGFSDAMTFKERVRNHIMHLEEHLLCHRFFKNALEIASEILQTPVTEYDLYSHTSIWLLRTDFVLDYPKPVMPNMIFIGGINCHQGKPLPMEFEAYINASGEHGIVVFSLGSMVSEIPEKKAMAIADALGKIPQTVLWRYTGTRPSNLANNTILVKWLPQNDLLGHPMTRAFITHAGSHGVYESICNGVPMVMMPLFGDQMDNAKRMETKGAGVTLNVLEMTSEDLENALKAVINDKSYKENIMRLSSLHKDRPVEPLDLAVFWVEFVMRHKGAPHLRPAAHDLTWYQYHSLDVIGFLLAVVLTVAFITFKCCAYGYRKCLGKKGRVKKAHKSKTH

| Substance | target or system | assay | test system | setting | how to read | endpoint | result |
| --- | --- | --- | --- | --- | --- | --- | --- |
| Clc1ccc2[nH]c(-c3ccccc3)cc2c1 | HEK293 NF-κB luciferase reporter | reporter gene, refers to: NF-κB | – | 50 µM, 6 h, together with: TNFα | – | inhibition | 2.3 ± 0.9% |
| C[C@H](C(=O)Oc1ccc(-c2cc(=S)ss2)cc1)c1ccc2cc(OC(=O)CCCO[N+](=O)[O-])ccc2c1 | IMR-90 and cancer cell lines | cell growth | – | 24 h | baseline: IMR-90 over cancer cells | IC50 ratio | 70 to 270 fold |
| RXRRXRRXRRXRXB (PMO conjugate) | pLuc705 cells | flow cytometry | peptide | 2 µM, 24 h, serum-free, unit not given | higher = more uptake | cellular uptake | 70 |
| COc1cccc(-c2cc(=O)c3ccccc3o2)c1N | NRK-52E | immunofluorescence imaging | – | 1 µM, together with: MGA | baseline: control | cell area | 149 ± 12% |
| O=C(/C=C/N1[C@H]2CC[C@@H]1c1ncnc(NC3CC3)c1C2)c1ccccc1O | C2C12 myoblasts | myoblast differentiation | – | – | – | effective concentration | 5 µM |
| COc1cccc(-c2cc3ccccc3[nH]2)c1 | HEK293 | cell growth or viability | – | 50 µM | – | viability | 65.8% |
| RXRXRXRXRXRXRXRXB (PMO conjugate) | pLuc705 cells | flow cytometry | peptide | 2 µM, 24 h, 10% serum, unit not given | higher = more uptake | cellular uptake | 92 |
| COc1ccc2cc(-c3cc4ccccc4[nH]3)ccc2c1 | HEK293 NF-κB luciferase reporter | reporter gene, refers to: NF-κB | – | 50 µM, 6 h, together with: TNFα | – | inhibition | 94.4 ± 1.6% |
| B1 (UGT1A9) | CC(C)(c1ccc(O)cc1)c1ccc(O)cc1 | steady-state kinetics | – | pH 7.4, 37 °C | – | Vmax/Km | 48 µL/min/mg |
| C[C@H](O)c1cccc(NC(=O)c2nn(Cc3ccc(F)cc3)c3c2CN(C(=O)c2ccc[nH]2)C[C@H]3C)c1 | IDH1 R132G mutant AML cells | – | – | concentration not given, IDH1/2 mutant hypermethylation signature | – | hypomethylated signature CpGs | ~70% |
| Cc1ccc(C(=O)NCc2ccsc2)cc1C#Cc1cn(C(C)C)c2ncnc(N)c12 | U-118-MG | cell growth or viability | – | – | – | GI50 | > 1 µM |
| CN(C)c1ccc(C2Nc3ccc(Br)cc3NC3=C2C(=O)CC(C)(C)C3)cc1 (stereo not drawn) | H4 | cytoprotection | – | together with: thapsigargin 7.5 µM | – | EC50 | ~13 µM |

Excerpt of the above:
| Substance | target or system | assay | test system | setting | how to read | endpoint | result |
| --- | --- | --- | --- | --- | --- | --- | --- |
| RXRRXRRXRRXRXB (PMO conjugate) | pLuc705 cells | flow cytometry | peptide | 2 µM, 24 h, serum-free, unit not given | higher = more uptake | cellular uptake | 70 |
